Assay results from different studies.
Numbers after ± are the reported error.

N#Cc1cccc(-c2ccc3ncc(-c4cc(F)cc(F)c4)c(N4CCC(N)CC4)c3c2)c1O: “total radioactivity recovered” 84.3% (healthy male, faeces; oral, 20 mg, 120 h, profiled samples; reference: dose).
Cc1c(-c2ccc(N3CCc4cccc(C(=O)Nc5nc6ccccc6s5)c4C3)nc2C(=O)O)cnn1CC12CC3(C)CC(C)(C1)CC(OCCNCC[C@H](O)CO)(C3)C2 — result for “mean arterial pressure change”: -2 mmHg (beagle dog, anaesthetised; intravenous infusion, 0.1 mg/kg/min, 10 min; reference: baseline).
Under plasma concentration, Cn1cc([C@H]2C[C@H]3CSC(N)=N[C@@]3(c3ccc(F)cc3F)CO2)cn1 is recorded as “not detected” (mouse; subcutaneous, 10 mg/kg, 18 h).
CCN1CCN(Cc2ccc(NC(=O)c3ccc(C)c(NC(=O)c4cncc(-c5cccs5)c4)c3)cc2C(F)(F)F)CC1 — result for “apparent volume of distribution”: 8.64 L/kg (C57BL/6 mice, epithelial lining fluid; intraperitoneal, 30 mg/kg).
COc1cc(C(=O)N2CCC3(CC2)CC(=O)c2c(cnn2C(C)C)C3)cc(-c2ccc(C(=O)O)cc2)n1 — result for “placebo-adjusted change from baseline”: -1.4% (measured: direct LDL cholesterol; human, fasting serum; 1 mg every 12 h, day 13, adjusted geometric mean; reference: baseline and placebo).
With CC(C)(C)c1ccc([C@H]2COC[C@@H](c3ccc(C#N)cc3)N2)cc1 the solubility was less than 4 µM (shake-flask, LC-HRMS; aqueous buffer; 16 h, pH 6.8).
O=C(CSc1nnc(-c2ccccc2O)n1-c1ccccc1)Nc1cccc(C(=O)O)c1 gave a solubility of 40.3 µg/mL (aqueous buffer; pH 7.4).
The MONO of CCC(=O)N(CCC(c1ccc2c(c1)OCO2)c1ccccc1OC)Cc1ccccc1 (centres unmarked) is reported as 1.85% (female athymic nude mouse, blood; i.p., 60 mg/kg twice daily, 14 days, group mean).
O=C(O)CCC(=O)O.[2H]C([2H])([2H])Oc1cc(C)c2[nH]ccc2c1CN1CC[C@@H](C2CC2)C[C@H]1c1ccc(C(=O)O)cc1: “subjects with allergic dermatitis TEAE” 0% (multiple ascending dose; healthy Chinese subjects; 200 mg once daily).
Cc1cc(C(=O)NC(C)(C)COc2cccc3c2C(N)=NS(=O)(=O)N3)cc(C)n1 gave an AUC(last) ratio of 1.13 (Sprague-Dawley rat, plasma; oral, 30 mg/kg, vehicle 1% methylcellulose; reference: female over male).
For O=C1NCCc2nc(OCc3cccc(F)c3)ccc21, “Irwin test score” read 0 (measured: Mydriasis; Sprague-Dawley rat male; oral, 100 mg/kg, 30 min; direction not given).
The solubility of CCC[C@H](C)[C@H]1CN(C(=O)OCC)C[C@@H](c2ccc(C(C)(C)C)cc2)N1 is reported as less than 4 µM (shake-flask, LC-HRMS; aqueous buffer; 16 h, pH 6.8).
The Stokes shift of Nc1ccccc1/C=C/C(=O)c1ccccc1 is reported as 92 nm (toluene; 20 °C).
CC(C)n1c(Nc2cccnc2)nc2cnc(Nc3ccc(N4CCN(C)CC4)cc3)nc21: “subjects with adverse event” 0% (measured: urine leukocytes positive; healthy male subjects; oral, 100 mg, study, together with: gemfibrozil).
Cc1ccc([C@@H]2O[C@H](CO)[C@@H](O)[C@H](O)[C@H]2O)cc1Cc1ccc(-c2ccc(F)cc2)s1: “urinary calcium excretion change” -23.5 mg (Japanese type 2 diabetes patients; 400 mg, day 15, 24 h urine collection; reference: baseline).
CNC(=O)c1cc(Oc2ccc(NC(=O)Nc3cc(C(C)(C)C)nn3-c3ccc4ncccc4c3)c(F)c2)ccn1: “patients with visual abnormality AE” 18% (measured: worst grade 1; human; oral, dose not given, cycles 1 and 2, Low Cmax subgroup).
CCC(CC)[C@@H]1COC[C@H](c2ccc(C(C)(C)C)cc2)N1 gave a solubility of less than 4 µM (shake-flask, LC-HRMS; aqueous buffer; 16 h, pH 6.8).
CCc1cc(C(=O)NC)c2nccc(N3CCc4c(cc(Cn5ccnc5)cc4-c4cn(C)nc4C(F)(F)F)C3=O)c2c1 — result for “red cell distribution width”: 12.9 ± 0.77% (Sprague Dawley rats; oral, 100 mg/kg once daily, 7 days).
CCOC(=O)N1C[C@H](CC(C)C)N[C@H](C2CCOCC2)C1 gave a solubility of greater than 750 µM (shake-flask, LC-HRMS; aqueous buffer; 16 h, pH 6.8).
With Cc1cc([C@H]2C[C@H]3[C@@H](C)SC(N)=N[C@@]3(c3ccc(F)cc3F)CO2)on1 the CSF concentration was 2350 nM (male 129/SVE mouse, CSF; subcutaneous, 50 mg/kg, 1 h).
With N[C@@H](C[18F])C(=O)O the tracer uptake was 1.19 ± 0.14 %ID/cc (PET imaging; female athymic nude mice, U-87 MG xenograft, muscle; intravenous, 30 min).
Cc1ccc([C@H]2N[C@@H](c3ccc(Cl)c(Cl)c3)CO[C@@H]2C)cc1 gave a solubility of less than 4 µM (shake-flask, LC-HRMS; aqueous buffer; 16 h, pH 6.8).
O=C(O)CCCCCCCCC(=O)O gave a Cmin of 21.7 ± 0.9 nM (human, plasma; endogenous baseline diurnal).
CCOC(=O)N1C[C@@H](c2cc(Cl)cc(Cl)c2)N[C@@H](C(CC)CC)C1 has a solubility of less than 4 µM (shake-flask, LC-HRMS; aqueous buffer; 16 h, pH 6.8).
For C[C@H]1O[C@@H](O[C@H]2CC[C@@]3(C)[C@@H](CC[C@]4(C)[C@@H]3C=C[C@]35OC[C@@]6(CCC(C)(C)C[C@H]63)[C@@H](O)C[C@]54C)[C@]2(C)CO)[C@H](O)[C@@H](O[C@@H]2O[C@H](CO)[C@@H](O)[C@H](O)[C@H]2O)[C@H]1O, the plasma concentration was 0.88 ng/mL (UHPLC-MS/MS; mouse, plasma; oral, 50 mg/kg, 6 h).
O=c1[nH]c(=O)n([C@@H]2O[C@H](CO)[C@@H](O)[C@@H]2F)cc1CCCC[18F] has a biodistribution of 0.11 ± 0.02 %ID/g (nude mice, RG2 tumour, spleen; intravenous, dose not given, 2 h).
CNCc1ccc(-c2[nH]c3cc(F)cc4c3c2CCNC4=O)cc1 has a vomiting incidence of 55.6% (human patients; oral, 480 mg twice daily, all grades).
NC1(C(=O)N[C@@H](CCO)c2ccc(Cl)cc2)CCN(c2nc[nH]c3nccc2-3)CC1 — result for “incidence of decreased appetite”: 0% (metastatic CRPC patients; 400 mg b.i.d., grade 3 to 4, treatment-related, together with: enzalutamide 160 mg daily).
CC(C)(C(=O)N1CCOc2c(C#N)cncc2C1)C(F)F: “subjects with adverse event” 0% (measured: disturbance in attention; human; oral, 10 mg once daily, 14 days, multiple ascending dose).
N#Cc1ccc2c(c1)[C@H]1CCCN(C(=O)c3ccc4[nH]cnc4c3)[C@H]1C2 has an SHBG level of 36 nmol/L (human males; 360 mg, day 15).
O=C(COc1ccc(Cl)cc1)NC12CC(c3nnc([C@H]4C[C@@H](OC(F)(F)F)C4)o3)(C1)C2 — result for “adverse event incidence”: 10.5% (measured: Nausea; human; 28 (unit not given)).
For C[Si](C)(C)O[Si](C)(C)C, the log KAW was 2.6 (2 to 27 µg/L, 28.3 °C).
With CCOc1c([C@H](C)n2nc(C)c3c(N)ncnc32)cc(Cl)c(F)c1[C@@H]1CNC(=O)C1 the Cmin was 395 nM (human Hodgkin lymphoma patients, plasma; oral, 20 mg, day 15).
For CCCCC[C@H]1CC[C@H](c2ccc(OCC)c(F)c2F)CC1, the placental accumulation was 25.6 ± 13 ng/g (rat, placenta; 10 ng/mL in perfusate, low dose, mixture of 21 LCMs).
O=c1[nH]c(=O)n([C@H]2C[C@H](O)[C@@H](CO)O2)cc1CCC[18F] has a biodistribution of 0.12 ± 0.04 %ID/g (male CD-1 nu/nu mice, RG2 tumour, brain; intravenous, dose not given, 2 h).
The concentration decrease of O=C(O)CCCCCN1C(=O)/C(=C2/C(=O)N(Cc3ccc(F)cc3)c3ccccc32)SC1=S is reported as roughly 36% (HPLC; 50 mM phosphate buffer; 10 µM, 48 h, pH 7).
CCOC(=O)N1C[C@@H](C2CC2)N[C@@H](c2cccc(OC)c2)C1 has a solubility of greater than 750 µM (shake-flask, LC-HRMS; aqueous buffer; 16 h, pH 6.8).
Cn1cc(Nc2nccc(-c3ccc4c(c3)CN(C3COC3)CC[C@H]4NC(=O)c3cn(C(C)(C)C)nn3)n2)cn1: “percent change from baseline” -22% (measured: Monocytes count; human, clinical trial, whole blood; 50 mg twice daily, follow-up).
Nc1nc2c(ncn2COCCO)c(=O)[nH]1 gave a solubility of 630 µg/mL (shake-flask; methanol-ethanol mixture; 298.2 K, mass fraction 0.2).
Under “patients with adverse event”, Cc1cc(NC2CCN(C(=O)OC3CCN(C(=O)/C=C/CN(C)C)C3)CC2)n2ncc(C(C)C)c2n1 (centres unmarked) is recorded as 18% (Phase I dose escalation CTCAE v4.0, measured: Diarrhea; patients with advanced solid tumours; dose not given, TIW dosing any grade).
Cc1c(C(=O)O)ccc2c3n(nc12)[C@@H]1[C@H](C3)N(CC2CC2)[C@@]2(C(=O)Nc3cc(Cl)ccc32)[C@H]1c1cccc(Cl)c1F: “decreased WBC count incidence” 24.1% (human patients phase Ia; oral, dose not given, all grades, all patients).
Under “concentration doubling APTT”, O=c1cc(-c2ccc(OS(=O)(=O)[O-])cc2)oc2cc(OS(=O)(=O)[O-])cc(OCc3cccc(COc4cc(OS(=O)(=O)[O-])cc5oc(-c6ccc(OS(=O)(=O)[O-])cc6)cc(=O)c45)n3)c12.[Na+].[Na+].[Na+].[Na+] is recorded as greater than 855000 nM (pooled human plasma).
CC(C)(C)c1ccc([C@@H]2COC[C@H](c3ccc(F)c(C#N)c3)N2)cc1 gave a solubility of less than 4 µM (shake-flask, LC-HRMS; aqueous buffer; 16 h, pH 6.8).
CCN1/C(=C/C(C)=O)Sc2ccc(F)cc21 gave a heart rate of 114 ± 22 beats/min (cynomolgus monkey; oral, 10 mg/kg, 2 h post-dose).
CC(C)=CCC/C(C)=C/C(=O)O.Cc1cc(/C=C/C#N)cc(C)c1Nc1ccnc(Nc2ccc(C#N)cc2)n1 has an equilibrium solubility of 2.04 ± 0.06 µg/mL (aqueous buffer; pH 4.5).
Under “elimination rate constant”, CCNCCCNC/C=C\CNCCCNCC is recorded as 3.66 h⁻¹ (LC-MS/MS; human cancer patients, plasma; intravenous infusion 60 min, 100 mg, median, cycle 1).
The biodistribution of O=c1[nH]c(=O)n([C@@H]2O[C@H](CO)[C@@H](O)[C@@H]2F)cc1CCC[18F] is reported as 0.77 ± 0.27 %ID/g (nude mice, RG2 tumour, bone; intravenous, dose not given, 2 h).
For CNC(=O)c1ccc(-c2cnc3ncc(Cc4ccc5ncccc5c4)n3n2)cc1F, “patients with adverse event” read 0% (measured: Insomnia; cancer patients; oral, 600 mg twice daily, all expansion cohorts, grade 3-4).
With O=C(Cn1cnc([N+](=O)[O-])n1)Nc1ccc(N2CCOCC2)c(Cl)c1 the solubility was 1.57 µg/mL (aqueous buffer; pH 7.4).
For COc1ncnn2ccc(-c3cnc4nc(C)n(Cc5nnc([C@@H](C)F)o5)c4c3)c12, the elimination half-life was 4.89 h (LC-MS/MS; human, plasma; oral, 70 mg capsule, cycle 1 day 1).
With Cc1cccc(CNC(=O)c2cn(CCNC(=O)c3ccccc3S)c3cc4c(cc3c2=O)OC(F)(F)O4)n1 the MRT(0-inf) was 8.67 h (Sprague-Dawley rat, male, whole blood; intramuscular, 3 mg/kg of parent drug).
The vomiting incidence of Cn1cc(Nc2nc(N)nc(-c3cccc(-n4ccc5cc(C6CC6)cc(F)c5c4=O)c3CO)n2)cn1 is reported as 0% (healthy humans, fed; oral tablet, 50 mg twice daily (multiple dose), 14 (unit not given); reference: subjects).
CCO[C@H]1CCN(Cc2c(OC)cc(C)c3[nH]ccc23)[C@H](c2ccc(C(=O)O)cc2)C1: “incidence of dyspepsia” 0% (PNH patients, active haemolysis; oral, 50 mg, 4 weeks, treatment).
With CCCC1CCC(c2ccc(-c3ccc(F)c(F)c3)cc2)CC1 (centres unmarked) the placental accumulation was 352 ± 482 ng/g (Sprague-Dawley rat, female, placenta; 5000 ng/mL in perfusate, 50 (unit not given), high dose, mixture of 21 LCMs).
For OC[C@H]1O[C@@H](c2ccc(F)c(Cc3cc4ccccc4s3)c2)[C@H](O)[C@@H](O)[C@@H]1O, “hypoglycaemia-related adverse event” read 3% (Japanese patients, type 1 diabetes; oral, 100 mg/day, onset day 8; reference: patients).
For O=C(CCCCCCC(=O)Nc1ccc(CC[18F])cc1)NO, the tissue uptake was 0.4 ± 0.1 %ID/g (athymic nu/nu male mice, LNCaP xenograft, brain; intravenous, 2 h).
CC(C)COC(=O)c1ccc2c(c1)/C(=N/Nc1ccc(S(N)(=O)=O)cc1)C(=O)N2 has a solubility of less than 2.97 µg/mL (aqueous buffer; pH 7.4).
COc1ccc2c(c1)CN(C(=O)CCN1CCC(Cc3ccccc3)CC1)CC[S@@+]2[O-] has a QRS duration of 33 ± 11 ms (telemetry; conscious male beagle dogs; intravenous, 4 mg/kg, 1 h).
Under “rectal haemorrhage TEAE”, COc1ccc([C@@H](O)c2cc(-c3ncnc4cc(N5CCOCC5)ccc34)c(F)cc2Cl)nn1 is recorded as 33% (locally advanced rectal cancer; oral, 150 mg, together with: capecitabine and radiotherapy).

Repeated from above:
With N[C@@H](C[18F])C(=O)O the tracer uptake was 1.19 ± 0.14 %ID/cc (PET imaging; female athymic nude mice, U-87 MG xenograft, muscle; intravenous, 30 min).
CC(C)(C(=O)N1CCOc2c(C#N)cncc2C1)C(F)F: “subjects with adverse event” 0% (measured: disturbance in attention; human; oral, 10 mg once daily, 14 days, multiple ascending dose).
With CCCC1CCC(c2ccc(-c3ccc(F)c(F)c3)cc2)CC1 (centres unmarked) the placental accumulation was 352 ± 482 ng/g (Sprague-Dawley rat, female, placenta; 5000 ng/mL in perfusate, 50 (unit not given), high dose, mixture of 21 LCMs).
For COc1ncnn2ccc(-c3cnc4nc(C)n(Cc5nnc([C@@H](C)F)o5)c4c3)c12, the elimination half-life was 4.89 h (LC-MS/MS; human, plasma; oral, 70 mg capsule, cycle 1 day 1).
